Published values of several laboratories.
Numbers after ± are the reported error.
AHR: Aryl hydrocarbon receptor (AHR, Homo sapiens, UniProt P35869)
UniProt P35869, sequence (whole entry, looked up): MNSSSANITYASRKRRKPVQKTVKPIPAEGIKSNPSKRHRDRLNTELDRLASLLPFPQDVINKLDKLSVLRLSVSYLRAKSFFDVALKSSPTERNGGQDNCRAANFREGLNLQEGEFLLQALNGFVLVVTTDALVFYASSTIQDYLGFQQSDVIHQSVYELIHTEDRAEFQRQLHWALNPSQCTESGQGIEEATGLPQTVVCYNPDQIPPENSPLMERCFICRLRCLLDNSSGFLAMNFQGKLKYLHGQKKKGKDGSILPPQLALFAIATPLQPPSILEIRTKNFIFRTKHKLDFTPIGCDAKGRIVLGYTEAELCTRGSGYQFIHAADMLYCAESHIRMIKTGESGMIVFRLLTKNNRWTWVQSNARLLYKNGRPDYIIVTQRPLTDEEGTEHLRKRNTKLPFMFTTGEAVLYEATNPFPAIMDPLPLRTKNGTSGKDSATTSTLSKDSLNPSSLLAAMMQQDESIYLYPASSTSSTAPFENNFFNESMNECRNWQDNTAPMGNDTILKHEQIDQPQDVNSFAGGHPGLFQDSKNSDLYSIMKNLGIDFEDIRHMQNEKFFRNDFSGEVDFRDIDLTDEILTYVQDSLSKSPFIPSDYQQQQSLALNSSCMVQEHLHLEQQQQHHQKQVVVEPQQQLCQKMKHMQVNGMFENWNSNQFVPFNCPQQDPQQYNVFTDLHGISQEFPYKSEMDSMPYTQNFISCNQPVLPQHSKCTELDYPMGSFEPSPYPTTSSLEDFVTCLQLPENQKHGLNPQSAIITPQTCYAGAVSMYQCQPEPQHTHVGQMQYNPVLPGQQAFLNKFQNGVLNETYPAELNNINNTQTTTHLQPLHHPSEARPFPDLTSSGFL
SLC6A4: Sodium-dependent serotonin transporter (SLC6A4, Homo sapiens, UniProt P31645)
UniProt P31645, sequence (whole entry, looked up): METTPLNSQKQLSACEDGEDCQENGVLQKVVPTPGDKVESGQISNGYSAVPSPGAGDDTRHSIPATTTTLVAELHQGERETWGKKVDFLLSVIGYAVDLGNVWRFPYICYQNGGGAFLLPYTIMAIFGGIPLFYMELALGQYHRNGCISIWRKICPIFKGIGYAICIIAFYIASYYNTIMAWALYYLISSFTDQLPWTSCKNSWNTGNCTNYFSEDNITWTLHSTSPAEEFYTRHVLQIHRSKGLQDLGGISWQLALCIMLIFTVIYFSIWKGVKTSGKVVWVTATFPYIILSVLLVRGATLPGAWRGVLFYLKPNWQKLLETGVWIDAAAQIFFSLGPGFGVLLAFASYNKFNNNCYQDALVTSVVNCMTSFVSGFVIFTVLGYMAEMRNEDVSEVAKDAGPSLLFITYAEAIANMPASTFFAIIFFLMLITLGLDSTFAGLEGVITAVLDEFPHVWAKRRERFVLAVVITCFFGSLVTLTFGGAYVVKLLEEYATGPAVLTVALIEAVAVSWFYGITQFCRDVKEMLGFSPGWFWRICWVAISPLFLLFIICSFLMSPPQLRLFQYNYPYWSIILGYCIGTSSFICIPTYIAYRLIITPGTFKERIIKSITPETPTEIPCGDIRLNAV
HTR2A: 5-hydroxytryptamine receptor 2A (HTR2A, Homo sapiens, UniProt P28223)
UniProt P28223, sequence (whole entry, looked up): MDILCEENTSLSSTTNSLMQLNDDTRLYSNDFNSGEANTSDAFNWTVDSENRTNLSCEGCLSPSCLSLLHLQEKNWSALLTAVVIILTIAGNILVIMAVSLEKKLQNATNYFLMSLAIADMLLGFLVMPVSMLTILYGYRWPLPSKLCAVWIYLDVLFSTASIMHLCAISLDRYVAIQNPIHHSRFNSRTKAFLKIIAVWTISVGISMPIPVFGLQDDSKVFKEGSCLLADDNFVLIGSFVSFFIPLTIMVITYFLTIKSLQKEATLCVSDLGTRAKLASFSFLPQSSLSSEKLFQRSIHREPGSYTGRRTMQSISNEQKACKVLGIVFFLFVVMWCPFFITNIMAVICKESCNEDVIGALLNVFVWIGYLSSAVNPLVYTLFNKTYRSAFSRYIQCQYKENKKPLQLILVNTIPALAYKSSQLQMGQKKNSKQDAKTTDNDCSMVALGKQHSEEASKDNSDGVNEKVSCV
GABA-A receptor; alpha-5/beta-3/gamma-2: GABA-A receptor; alpha-5/beta-3/gamma-2 (Homo sapiens, UniProt P18507+P28472+P31644)
UniProt P28472, sequence (whole entry, unmodified, looked up): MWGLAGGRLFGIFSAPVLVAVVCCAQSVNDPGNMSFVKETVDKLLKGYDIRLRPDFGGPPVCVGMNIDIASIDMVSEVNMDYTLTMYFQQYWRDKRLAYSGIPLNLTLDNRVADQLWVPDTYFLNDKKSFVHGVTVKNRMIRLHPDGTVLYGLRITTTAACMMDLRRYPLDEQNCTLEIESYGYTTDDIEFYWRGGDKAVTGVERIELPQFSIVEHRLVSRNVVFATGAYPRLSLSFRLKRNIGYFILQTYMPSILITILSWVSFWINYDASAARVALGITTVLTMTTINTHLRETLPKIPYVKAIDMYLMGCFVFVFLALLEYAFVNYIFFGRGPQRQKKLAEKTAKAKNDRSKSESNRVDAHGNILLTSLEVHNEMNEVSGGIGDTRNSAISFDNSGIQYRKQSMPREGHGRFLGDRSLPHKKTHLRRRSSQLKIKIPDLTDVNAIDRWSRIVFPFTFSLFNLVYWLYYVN
UniProt P18507, sequence (whole entry, looked up): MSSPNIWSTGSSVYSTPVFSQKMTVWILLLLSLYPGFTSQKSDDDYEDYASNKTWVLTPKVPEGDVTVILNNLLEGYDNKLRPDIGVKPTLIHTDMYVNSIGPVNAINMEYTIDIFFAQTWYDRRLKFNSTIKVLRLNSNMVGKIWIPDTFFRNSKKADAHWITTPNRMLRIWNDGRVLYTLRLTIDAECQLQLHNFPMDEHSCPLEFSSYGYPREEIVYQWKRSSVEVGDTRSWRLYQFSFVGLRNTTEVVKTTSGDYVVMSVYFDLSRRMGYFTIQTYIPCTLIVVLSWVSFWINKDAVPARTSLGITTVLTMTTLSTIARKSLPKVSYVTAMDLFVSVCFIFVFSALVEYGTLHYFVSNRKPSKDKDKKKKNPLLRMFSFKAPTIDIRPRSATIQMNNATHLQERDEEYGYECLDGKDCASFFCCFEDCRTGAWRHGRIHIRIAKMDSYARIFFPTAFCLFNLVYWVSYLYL
UniProt P31644, sequence (whole entry, looked up): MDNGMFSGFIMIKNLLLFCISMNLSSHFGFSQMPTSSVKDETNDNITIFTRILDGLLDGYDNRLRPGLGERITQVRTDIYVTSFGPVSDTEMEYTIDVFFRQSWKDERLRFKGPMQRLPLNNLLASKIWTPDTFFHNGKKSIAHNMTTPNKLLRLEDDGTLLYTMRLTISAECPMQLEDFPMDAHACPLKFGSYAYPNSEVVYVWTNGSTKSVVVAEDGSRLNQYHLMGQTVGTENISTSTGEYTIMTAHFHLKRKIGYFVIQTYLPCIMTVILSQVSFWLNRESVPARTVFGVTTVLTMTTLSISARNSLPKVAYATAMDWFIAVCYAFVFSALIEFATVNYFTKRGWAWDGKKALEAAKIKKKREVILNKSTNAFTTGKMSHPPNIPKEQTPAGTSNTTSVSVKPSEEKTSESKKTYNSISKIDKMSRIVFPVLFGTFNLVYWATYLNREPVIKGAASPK
Neuronal acetylcholine receptor; alpha9/alpha10: Neuronal acetylcholine receptor; alpha9/alpha10 (Homo sapiens, UniProt Q9GZZ6+Q9UGM1)
UniProt Q9UGM1, sequence (whole entry, looked up): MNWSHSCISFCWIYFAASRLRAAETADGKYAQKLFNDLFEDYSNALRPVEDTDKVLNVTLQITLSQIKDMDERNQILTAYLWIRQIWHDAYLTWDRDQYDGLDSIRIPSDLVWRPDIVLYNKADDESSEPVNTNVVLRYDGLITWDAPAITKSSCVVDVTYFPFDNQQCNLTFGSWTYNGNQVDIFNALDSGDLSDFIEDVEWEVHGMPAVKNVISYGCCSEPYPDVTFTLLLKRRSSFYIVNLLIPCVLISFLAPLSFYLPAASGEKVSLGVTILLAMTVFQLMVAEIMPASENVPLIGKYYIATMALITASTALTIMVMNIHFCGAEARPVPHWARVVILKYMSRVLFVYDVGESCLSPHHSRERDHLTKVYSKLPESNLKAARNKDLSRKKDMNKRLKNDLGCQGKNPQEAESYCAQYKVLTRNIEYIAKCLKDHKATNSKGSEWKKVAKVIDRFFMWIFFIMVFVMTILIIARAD
UniProt Q9GZZ6, sequence (whole entry, looked up): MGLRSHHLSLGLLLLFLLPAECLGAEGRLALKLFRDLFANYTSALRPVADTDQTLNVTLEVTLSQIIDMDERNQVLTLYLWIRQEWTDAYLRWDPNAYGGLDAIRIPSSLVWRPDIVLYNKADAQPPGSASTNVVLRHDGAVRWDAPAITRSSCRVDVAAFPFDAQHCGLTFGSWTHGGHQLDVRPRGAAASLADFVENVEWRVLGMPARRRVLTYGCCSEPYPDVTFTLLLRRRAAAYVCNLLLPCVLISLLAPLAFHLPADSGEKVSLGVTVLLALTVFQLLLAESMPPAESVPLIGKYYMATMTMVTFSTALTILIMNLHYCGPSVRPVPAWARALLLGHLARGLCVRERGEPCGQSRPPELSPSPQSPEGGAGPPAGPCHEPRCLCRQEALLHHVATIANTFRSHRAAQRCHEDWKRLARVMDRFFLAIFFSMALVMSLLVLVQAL
Aryl hydrocarbon receptor: Aryl hydrocarbon receptor (Danio rerio, UniProt Q9YGV3)
UniProt Q9GZQ4, sequence (whole entry, looked up): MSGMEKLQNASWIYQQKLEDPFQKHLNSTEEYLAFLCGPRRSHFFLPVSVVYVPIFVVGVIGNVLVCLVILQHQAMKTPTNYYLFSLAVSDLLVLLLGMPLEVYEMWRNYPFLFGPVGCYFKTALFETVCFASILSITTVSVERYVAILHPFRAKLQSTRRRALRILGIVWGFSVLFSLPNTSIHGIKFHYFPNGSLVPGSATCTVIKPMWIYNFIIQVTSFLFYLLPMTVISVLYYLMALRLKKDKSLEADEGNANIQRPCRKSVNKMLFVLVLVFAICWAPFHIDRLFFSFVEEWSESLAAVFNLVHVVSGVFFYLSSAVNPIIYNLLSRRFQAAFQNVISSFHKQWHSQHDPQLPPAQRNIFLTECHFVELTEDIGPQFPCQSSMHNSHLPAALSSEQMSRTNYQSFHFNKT

CC[C@H](C)[C@H](NC(=O)[C@H](CO)NC(=O)[C@H](C)NC(=O)[C@H](Cc1ccc(OP(=O)(O)O)cc1)NC(=O)[C@H](CCC(=O)O)NC(=O)[C@@H](NC(=O)[C@H](Cc1c[nH]cn1)NC(=O)[C@H](CC(N)=O)NC(=O)[C@H](CC(N)=O)NC(=O)[C@@H]1CCCN1C(=O)[C@H](CCC(=O)O)NC(=O)[C@H](C)NC(=O)[C@H](C)NC(=O)[C@H](CCC(N)=O)NC(=O)[C@@H]1CCCN1C(=O)[C@H](C)NC(=O)[C@@H]1CCCN1C(=O)[C@H](CCCCN)NC(=O)[C@H](CCCCN)NC(=O)CNC(=O)[C@H](CCCCN)NC(=O)[C@@H]1CCCN1C(=O)[C@H](CC(C)C)NC(=O)[C@H](CC(N)=O)NC(=O)[C@H](CC(C)C)NC(=O)[C@H](CC(=O)O)NC(=O)[C@H](C)NC(=O)[C@H](Cc1ccc(OP(=O)(O)O)cc1)NC(=O)[C@@H](NC(=O)[C@@H](NC(=O)[C@@H](N)CC(=O)O)[C@@H](C)CC)[C@@H](C)O)[C@@H](C)O)C(=O)N[C@@H](CCC(N)=O)C(=O)N[C@H](C(=O)N[C@@H](CO)C(=O)O)[C@@H](C)O
EC50 (Tyrosine-protein phosphatase non-receptor type 11 (PTPN11, Homo sapiens, UniProt Q06124); enzyme activity, activator; pH 7.0, 0.2% DMSO, added: DiFMUP 100 µM, phosphopeptide): 0.076 ± 0.001 µM

N[C@H](C(=O)O)c1cc(=O)[nH]o1
EC50 (uncharacterized protein (Ixodes scapularis, UniProt A0A0N9E2I2); ion current, agonist, two-electrode voltage clamp; Xenopus oocytes; holding potential -80 mV; reference: 1 mM L-glutamate response): 10.8 µM

Cc1cccc2ccc3ccccc3c12
EC50 (AHR; reporter gene, agonist, yeast LacZ reporter; Saccharomyces cerevisiae; 18 h, 30 °C; reference: 50% of 100 µM phenanthrene activity): 11.7 µM

O=C(N=Nc1c(O)n(CCCCCF)c2ccccc12)c1ccccc1
EC50 (Cannabinoid receptor 1 (CNR1, Homo sapiens, UniProt P21554); agonist): 0.186 µM

CSCC[C@H](NC(=O)[C@H](CCCNC(=N)N)NC(=O)[C@H](Cc1ccccc1)NC(=O)[C@H](C)NC(=O)[C@H](CC(N)=O)NC(=O)[C@@H]1CCCN1C(=O)[C@H](CC(=O)O)NC(=O)[C@@H](N)CCSC)C(=O)N[C@@H](CO)C(=O)N[C@@H](Cc1ccccc1)C(N)=O
EC50 (Galanin-like G-protein coupled receptor npr-9 (npr-9, Caenorhabditis elegans, UniProt Q23497); calcium mobilization, agonist, aequorin luminescence; CHO cells): 0.618 µM

C=C1C[C@@H]2C[C@@H]3CC(=C)C[C@H](/C=C/C(C)(C)[C@]4(O)O[C@@H](C/C(=C\C(=O)OC)[C@@H]4OC(=O)/C=C/C=C/CCC)C[C@H]([C@@H](C)O)OC(=O)C[C@H](O)C[C@H](C1)O2)O3
EC50 (Protein kinase C delta type (Prkcd, Mus musculus, UniProt P28867); mouse cells): 0.101 ± 0.034 µM

CC1(C(=O)Nc2ccc(O)c(Cl)c2Cl)CCCCC1
EC50 (AHR; agonist): > 100 µM

Clc1cc2c(cc1Cl)Oc1cc(Cl)c(Cl)cc1O2
EC50 (Uncharacterized protein (Takifugu rubripes, UniProt Q4JHL2); reporter gene, agonist, dual-luciferase; COS-7; 24 h): 0.00043 ± 0.00022 µM

C[C@H](c1ccccc1)n1cncc1C(=O)OCCC(=O)O
EC50 (GABA-A receptor alpha-1/beta-3, with gamma-2 subunit (GABRA1/GABRB3, Homo sapiens, UniProt P14867+P28472, L291T); direct receptor activation, agonist, two-electrode voltage clamp; Xenopus oocytes; reference: 100 µM GABA current): 8300 µM

Cc1cc2ccccc2c2ccccc12
EC50 (AHR; reporter gene, agonist, yeast LacZ reporter; Saccharomyces cerevisiae; 18 h): 15.8 µM

CNC(C)Cc1ccc2nsnc2c1 (stereo not drawn)
EC50 (SLC6A4; transporter current, whole-cell patch clamp; HEK293; holding -60 mV): 0.44 µM

O=C(O)c1ccccc1Nc1cccc(C(F)(F)F)c1
EC50 (BK channel alpha subunit (Cavia porcellus, UniProt A0A286XP95); delayed rectifier K+ current, activator; dispersed vascular smooth muscle cells, guinea pig, SMA arteriole; at +40 mV): 346 µM

COc1cc(CCNC(c2ccccc2O)C2CC2)c(OC)cc1C#N (stereo not drawn)
EC50 (HTR2A; agonist; cell-based): 0.0347 µM

NCc1cc(=O)[nH]o1
EC50 (GABA-A receptor; alpha-5/beta-3/gamma-2; membrane potential, agonist, QP-DHM fluorescence; HEK293 expressing GABAA α5β3γ2): 0.65 µM

C[N+](C)(C)CCOC(N)=O
EC50 (Neuronal acetylcholine receptor; alpha9/alpha10): 6.67 µM

CCCCCCCCCCC[C@@H](C[C@@H]1OC(=O)[C@H]1CCCCCC)OC(=O)[C@H](CC(C)C)NC=O
EC50 (Gag polyprotein, nucleocapsid protein p7 (gag, Human immunodeficiency virus type 1 group M subtype B, UniProt P04591); NCp7-RNA binding enhancement, AlphaScreen; added: U3 RNA; reference: DMSO): 25.7 µM

Cc1cccc2c1ccc1ccccc12
EC50 (AHR; reporter gene, agonist, yeast LacZ reporter; Saccharomyces cerevisiae; 18 h): 11.1 µM

c1ccc2c3c(ccc2c1)-c1cccc2cccc-3c12
EC50 (Aryl hydrocarbon receptor; agonist; ZF4 reporter cells; 22 to 24 h): 0.0274 µM

C[C@H](N)Cn1ncc2ccc3c(c21)CCCO3
EC50 (HTR2A; agonist, aequorin): 0.00168 ± 0.00038 µM

c1ccc2c(c1)-c1cccc3c1c-2cc1ccccc13
EC50 (Aryl hydrocarbon receptor; agonist; ZF4 reporter cells; 22 to 24 h): 0.0149 µM

Oc1cccc(N2C3CCC2CN(CCc2ccccc2)C3)c1
EC50 (Delta-type opioid receptor (OPRD1, Homo sapiens, UniProt P41143)): 0.0235 ± 0.00589 µM

CNC(C)Cc1ccc2nonc2c1 (stereo not drawn)
EC50 (SLC6A4; transporter current, whole-cell patch clamp; HEK293; holding -60 mV): 1.27 µM

C[C@@H]1[C@@H](c2ccc(Cl)cc2)SC(=O)N1C(=O)NC1CCCCC1
EC50 (AHR; agonist): > 100 µM

CCC[N+]1(CC)CCN(c2ccc(C#N)cc2)CC1
EC50 (Neuronal acetylcholine receptor; alpha9/alpha10; peak current, agonist, two-electrode voltage clamp; Xenopus laevis oocytes, α9α10 with RAPSYN): 3.7 ± 1.6 µM

COc1cc(CCNC2CCCc3cccc(O)c32)c(OC)cc1C#N (stereo not drawn)
EC50 (HTR2A; agonist): 0.15 µM

CCCC(=O)CC(=O)N[C@H]1CCOC1=O
EC50 (expR (Pectobacterium carotovorum, UniProt Q4KS34)): 3 µM

CC(C)C[C@H](NC(=O)[C@H](Cc1ccccc1)NC(=O)[C@H](Cc1ccc(O)cc1)NC(=O)CNC(=O)[C@H](CCCCN)NC(=O)[C@H](CO)NC(=O)[C@H](CCC(N)=O)NC(=O)CNC(=O)[C@@H](NC(=O)[C@H](CO)NC(=O)[C@@H]1CCCN1C(=O)[C@H](CO)NC(=O)[C@H](CCC(N)=O)NC(=O)[C@H](Cc1ccc(O)cc1)NC(=O)[C@H](CCC(=O)O)NC(=O)[C@H](C)NC(=O)[C@H](CCCCN)NC(=O)[C@@H](N)Cc1ccccc1)C(C)C)C(=O)N[C@@H](Cc1ccccc1)C(=O)N[C@@H](CCCNC(=N)N)C(=O)N1CCC[C@H]1C(=O)N[C@@H](CCCNC(=N)N)C(=O)N[C@@H](CC(N)=O)C(N)=O
EC50 (Neuromedin-U receptor 2 (NMUR2, Homo sapiens, UniProt Q9GZQ4); beta-arrestin recruitment, agonist, PathHunter luminescence; CHO-K1; 90 min, 37 °C): 0.0011 µM

Cc1ccc2ccc3ccccc3c2c1
EC50 (AHR; reporter gene, agonist, yeast LacZ reporter; Saccharomyces cerevisiae; 18 h): 19.2 µM

CCCC(NCCc1cc(OC)c(C#N)cc1OC)c1ccccc1O (stereo not drawn)
EC50 (HTR2A; agonist; cell-based): 0.14 µM

Oc1noc2c1CCNC2
EC50 (GABA-A receptor; alpha-5/beta-3/gamma-2; membrane potential, agonist, QP-DHM fluorescence; HEK293 expressing GABAA α5β3γ2): 13 µM

Repeated from above:
COc1cc(CCNC2CCCc3cccc(O)c32)c(OC)cc1C#N (stereo not drawn)
EC50 (HTR2A; agonist): 0.15 µM

CCCC(=O)CC(=O)N[C@H]1CCOC1=O
EC50 (expR (Pectobacterium carotovorum, UniProt Q4KS34)): 3 µM
